Experimental data from different studies.
Parts stem from different laboratories: compare values within a part only.
Sequence of UniProt Q9UQ88 (whole entry, looked up): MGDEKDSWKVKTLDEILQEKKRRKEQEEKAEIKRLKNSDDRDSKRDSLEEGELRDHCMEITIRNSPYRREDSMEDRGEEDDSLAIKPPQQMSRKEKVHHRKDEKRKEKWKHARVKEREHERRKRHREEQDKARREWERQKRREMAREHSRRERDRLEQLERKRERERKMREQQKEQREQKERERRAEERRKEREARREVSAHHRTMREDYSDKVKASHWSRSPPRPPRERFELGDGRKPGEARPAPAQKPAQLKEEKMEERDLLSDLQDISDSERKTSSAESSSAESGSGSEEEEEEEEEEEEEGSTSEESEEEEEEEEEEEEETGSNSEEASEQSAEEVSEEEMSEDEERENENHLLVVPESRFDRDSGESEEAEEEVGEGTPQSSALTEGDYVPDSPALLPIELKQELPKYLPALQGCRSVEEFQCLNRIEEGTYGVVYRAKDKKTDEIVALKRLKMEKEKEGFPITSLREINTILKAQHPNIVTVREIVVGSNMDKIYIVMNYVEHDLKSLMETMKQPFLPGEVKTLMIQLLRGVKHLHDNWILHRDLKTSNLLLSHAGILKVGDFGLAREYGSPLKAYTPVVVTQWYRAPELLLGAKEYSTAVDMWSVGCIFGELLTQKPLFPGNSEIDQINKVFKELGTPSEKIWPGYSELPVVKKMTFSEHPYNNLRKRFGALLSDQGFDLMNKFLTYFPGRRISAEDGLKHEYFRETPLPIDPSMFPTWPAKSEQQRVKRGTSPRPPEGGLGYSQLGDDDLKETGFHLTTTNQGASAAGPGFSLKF
Sequence of UniProt P10721 (whole entry, unmodified, looked up): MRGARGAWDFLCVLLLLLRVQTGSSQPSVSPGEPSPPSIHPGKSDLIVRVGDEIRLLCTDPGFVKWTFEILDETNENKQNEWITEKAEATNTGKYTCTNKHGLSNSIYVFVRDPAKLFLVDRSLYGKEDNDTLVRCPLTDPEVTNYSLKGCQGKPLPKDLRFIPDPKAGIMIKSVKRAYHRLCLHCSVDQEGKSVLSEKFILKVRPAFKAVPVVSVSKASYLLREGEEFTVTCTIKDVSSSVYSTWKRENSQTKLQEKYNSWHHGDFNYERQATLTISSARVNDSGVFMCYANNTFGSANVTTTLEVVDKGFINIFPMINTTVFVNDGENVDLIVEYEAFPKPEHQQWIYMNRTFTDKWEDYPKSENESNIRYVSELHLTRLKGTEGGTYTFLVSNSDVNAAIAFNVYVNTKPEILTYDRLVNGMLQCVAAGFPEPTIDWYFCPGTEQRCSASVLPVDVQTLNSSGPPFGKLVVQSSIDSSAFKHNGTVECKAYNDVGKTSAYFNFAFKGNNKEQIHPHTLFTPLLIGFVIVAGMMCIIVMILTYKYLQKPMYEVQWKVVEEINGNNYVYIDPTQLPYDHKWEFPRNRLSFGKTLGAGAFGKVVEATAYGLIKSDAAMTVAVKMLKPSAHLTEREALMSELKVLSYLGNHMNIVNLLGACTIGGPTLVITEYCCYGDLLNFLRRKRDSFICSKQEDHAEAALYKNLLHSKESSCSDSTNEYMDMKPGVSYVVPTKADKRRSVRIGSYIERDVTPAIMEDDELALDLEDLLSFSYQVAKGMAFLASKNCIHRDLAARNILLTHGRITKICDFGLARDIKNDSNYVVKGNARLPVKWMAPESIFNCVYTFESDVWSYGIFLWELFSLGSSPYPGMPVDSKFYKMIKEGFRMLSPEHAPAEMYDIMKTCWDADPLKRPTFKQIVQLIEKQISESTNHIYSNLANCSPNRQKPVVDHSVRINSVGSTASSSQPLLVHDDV
Sequence of UniProt Q04912 (whole entry, looked up): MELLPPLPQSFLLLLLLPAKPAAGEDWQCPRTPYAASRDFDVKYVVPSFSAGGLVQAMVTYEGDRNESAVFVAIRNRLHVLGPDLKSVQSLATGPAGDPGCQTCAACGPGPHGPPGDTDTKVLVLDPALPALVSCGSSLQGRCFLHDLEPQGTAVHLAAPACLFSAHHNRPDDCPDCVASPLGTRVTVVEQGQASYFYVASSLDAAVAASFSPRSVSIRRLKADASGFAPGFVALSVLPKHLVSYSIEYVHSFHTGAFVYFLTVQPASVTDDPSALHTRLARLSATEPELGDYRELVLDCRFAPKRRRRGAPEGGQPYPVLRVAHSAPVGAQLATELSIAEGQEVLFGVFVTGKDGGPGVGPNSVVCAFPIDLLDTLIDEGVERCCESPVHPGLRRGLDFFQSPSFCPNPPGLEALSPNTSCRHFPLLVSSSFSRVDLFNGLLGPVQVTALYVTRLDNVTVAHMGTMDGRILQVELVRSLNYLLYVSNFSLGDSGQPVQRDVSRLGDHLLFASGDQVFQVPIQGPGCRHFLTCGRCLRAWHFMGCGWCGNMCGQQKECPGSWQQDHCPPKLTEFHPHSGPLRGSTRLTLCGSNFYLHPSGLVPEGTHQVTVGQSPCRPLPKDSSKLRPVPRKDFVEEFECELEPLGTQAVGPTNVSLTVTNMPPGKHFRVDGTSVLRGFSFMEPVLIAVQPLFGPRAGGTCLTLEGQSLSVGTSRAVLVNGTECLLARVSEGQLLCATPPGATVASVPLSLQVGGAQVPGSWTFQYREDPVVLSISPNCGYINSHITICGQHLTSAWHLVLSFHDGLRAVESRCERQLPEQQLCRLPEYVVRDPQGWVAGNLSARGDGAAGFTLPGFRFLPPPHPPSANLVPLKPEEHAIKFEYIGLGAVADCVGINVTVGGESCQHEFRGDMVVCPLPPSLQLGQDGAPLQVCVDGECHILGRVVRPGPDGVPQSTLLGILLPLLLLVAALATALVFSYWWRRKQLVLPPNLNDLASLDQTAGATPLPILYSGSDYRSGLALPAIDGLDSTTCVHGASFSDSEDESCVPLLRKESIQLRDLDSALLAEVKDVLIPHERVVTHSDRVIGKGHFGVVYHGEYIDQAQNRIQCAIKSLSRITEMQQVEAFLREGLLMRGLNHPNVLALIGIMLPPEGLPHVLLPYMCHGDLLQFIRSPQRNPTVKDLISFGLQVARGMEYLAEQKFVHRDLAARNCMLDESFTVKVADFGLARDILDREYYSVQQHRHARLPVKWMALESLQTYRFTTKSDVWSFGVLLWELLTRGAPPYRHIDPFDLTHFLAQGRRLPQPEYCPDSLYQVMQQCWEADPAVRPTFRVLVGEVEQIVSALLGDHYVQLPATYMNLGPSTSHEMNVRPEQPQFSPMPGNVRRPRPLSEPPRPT
Sequence of UniProt P10398 (whole entry, looked up): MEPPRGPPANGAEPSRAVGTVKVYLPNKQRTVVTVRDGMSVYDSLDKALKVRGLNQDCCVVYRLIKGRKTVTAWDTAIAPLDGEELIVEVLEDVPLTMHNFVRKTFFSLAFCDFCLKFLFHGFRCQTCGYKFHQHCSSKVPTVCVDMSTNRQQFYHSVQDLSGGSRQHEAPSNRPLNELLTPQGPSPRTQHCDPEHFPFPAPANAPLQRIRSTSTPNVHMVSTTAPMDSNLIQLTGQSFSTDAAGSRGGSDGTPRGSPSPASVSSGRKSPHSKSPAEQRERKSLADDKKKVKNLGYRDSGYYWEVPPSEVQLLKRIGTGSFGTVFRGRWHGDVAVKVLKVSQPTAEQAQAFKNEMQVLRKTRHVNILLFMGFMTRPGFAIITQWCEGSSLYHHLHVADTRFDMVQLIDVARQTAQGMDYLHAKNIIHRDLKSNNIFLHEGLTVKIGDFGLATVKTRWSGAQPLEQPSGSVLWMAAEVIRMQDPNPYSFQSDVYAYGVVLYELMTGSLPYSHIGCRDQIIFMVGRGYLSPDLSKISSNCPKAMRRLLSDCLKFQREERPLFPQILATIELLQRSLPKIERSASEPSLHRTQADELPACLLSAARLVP
Sequence of UniProt P42685 (whole entry, looked up): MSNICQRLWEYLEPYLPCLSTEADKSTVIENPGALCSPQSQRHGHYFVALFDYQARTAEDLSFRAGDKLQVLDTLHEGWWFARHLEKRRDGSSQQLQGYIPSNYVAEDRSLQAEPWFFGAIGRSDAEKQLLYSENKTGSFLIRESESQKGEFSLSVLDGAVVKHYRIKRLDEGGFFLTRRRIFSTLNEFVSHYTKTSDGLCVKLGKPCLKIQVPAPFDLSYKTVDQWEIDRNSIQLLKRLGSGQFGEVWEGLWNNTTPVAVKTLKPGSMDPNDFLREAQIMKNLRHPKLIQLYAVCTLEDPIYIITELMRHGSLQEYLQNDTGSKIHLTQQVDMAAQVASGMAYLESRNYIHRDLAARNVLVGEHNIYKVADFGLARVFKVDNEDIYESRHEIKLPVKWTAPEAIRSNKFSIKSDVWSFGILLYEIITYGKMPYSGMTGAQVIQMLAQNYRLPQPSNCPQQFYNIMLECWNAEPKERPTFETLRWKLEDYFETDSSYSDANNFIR
Sequence of UniProt Q9HC98 (whole entry, looked up): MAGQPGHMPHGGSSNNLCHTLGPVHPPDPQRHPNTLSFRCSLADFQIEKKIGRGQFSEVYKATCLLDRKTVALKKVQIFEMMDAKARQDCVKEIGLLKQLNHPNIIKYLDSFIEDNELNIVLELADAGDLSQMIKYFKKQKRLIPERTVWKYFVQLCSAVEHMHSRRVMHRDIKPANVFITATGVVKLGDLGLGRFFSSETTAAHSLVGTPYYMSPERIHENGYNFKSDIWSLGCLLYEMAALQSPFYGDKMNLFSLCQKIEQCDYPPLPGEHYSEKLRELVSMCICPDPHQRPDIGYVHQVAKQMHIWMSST

Sample 1 — observed: cell-free assay; concentration: 1 µM
Structure (SMILES): C[C@H]1CC[C@H](n2c3cnccc3c3cnc(Nc4ccc5c(n4)CCN(C(=O)CO)C5)nc32)CC1
target | remaining signal [%]
MARK4 (Homo sapiens, UniProt Q96L34) | 68
PIK3CB (Homo sapiens, UniProt P42338) | 100
TRPM6 (Homo sapiens, UniProt Q9BX84) | 100
CDK11A (Homo sapiens, UniProt Q9UQ88) | 100
KIT (Homo sapiens, UniProt P10721, V559D/V654A) | 84
KIT (Homo sapiens, UniProt P10721, T670I/V559D) | 53
MAP3K15 (Homo sapiens, UniProt Q6ZN16) | 100
RIPK4 (Homo sapiens, UniProt P57078) | 100

Sample 2 — cell line: HaCaT; concentration: 100 µM; time: 36 h
SMILES | viability
CN/C(=N/CCSCc1nc[nH]c1C)NC#N | 97.8%
O=c1ccc2cc3ccoc3cc2o1 | 68.6%
c1cnc2cc3c(cc2n1)[C@@H]1CNC[C@H]3C1 | 97%
O=c1c(-c2ccc(O)cc2)coc2c([C@@H]3O[C@H](CO)[C@@H](O)[C@H](O)[C@H]3O)c(O)ccc12 | 89.8%
CCC[C@H](NC(=O)[C@@H]1[C@H]2CCC[C@H]2CN1C(=O)[C@@H](NC(=O)[C@@H](NC(=O)c1cnccn1)C1CCCCC1)C(C)(C)C)C(=O)C(=O)NC1CC1 | 24.4%
C[C@@H]1CN(c2c(F)c(N)c3c(=O)c(C(=O)O)cn(C4CC4)c3c2F)C[C@H](C)N1 | 86.6%
Cc1cccc(C)c1NC(=O)c1ccccc1C(=O)O | 98.1%

Sample 3 — observed: cell-free assay; method: competition with immobilised ligand; concentration: 1 µM
SMILES: CS(=O)(=O)c1cc(C2(NC(=O)c3cncc4c3cnn4-c3ccc(F)cc3)CC2)ccn1
target | remaining binding [%]
CSNK1D (Homo sapiens, UniProt P48730) | 99
ALK (Homo sapiens, UniProt Q9UM73, C1156Y) | 100
AXL (Homo sapiens, UniProt P30530) | 100
SIK2 (Homo sapiens, UniProt Q9H0K1) | 100
CDK11A (Homo sapiens, UniProt Q9UQ88) | 99
MAPK6 (Homo sapiens, UniProt Q16659) | 100

Sample 4 — observed: enzyme activity; mode: inhibitor; concentration: 10 µM
Target: Calcium/calmodulin-dependent protein kinase type II subunit alpha (CAMK2A, Homo sapiens, UniProt Q9UQM7)
Sequence of UniProt Q9UQM7 (whole entry, looked up): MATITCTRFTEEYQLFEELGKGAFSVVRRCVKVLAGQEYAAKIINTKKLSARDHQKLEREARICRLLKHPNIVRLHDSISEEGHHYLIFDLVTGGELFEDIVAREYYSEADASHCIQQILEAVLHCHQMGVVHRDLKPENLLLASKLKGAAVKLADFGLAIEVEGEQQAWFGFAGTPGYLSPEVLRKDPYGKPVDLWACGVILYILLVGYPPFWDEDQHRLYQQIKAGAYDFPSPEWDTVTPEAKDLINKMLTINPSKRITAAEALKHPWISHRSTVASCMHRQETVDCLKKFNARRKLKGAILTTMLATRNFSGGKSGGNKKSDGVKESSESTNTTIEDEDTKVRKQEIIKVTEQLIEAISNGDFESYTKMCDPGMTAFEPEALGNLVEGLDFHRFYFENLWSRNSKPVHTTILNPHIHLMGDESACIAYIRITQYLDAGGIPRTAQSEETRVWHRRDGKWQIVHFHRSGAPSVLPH
Compound | inhibition [%]
COc1ccc(C(O)CNC(=O)/C=C/c2ccccc2)cc1 (stereo not shown) | -27
COc1cc2ccc(=O)oc2c(OC)c1OC | 8
O=C1CCC[C@@H]2[C@H]3CCC[N+]4([O-])CCC[C@H](CN12)[C@@H]34 (stereo partly shown) | 20
Cc1ccc2ccc(=O)oc2c1 | 1
CCc1cnccn1 | 26
CC(C)=CCO | -38
Cn1c(=O)c2c(ncn2CC(O)CO)n(C)c1=O (stereo not shown) | -8
O=C1C[C@@H](c2ccc(O)cc2)Oc2cc(O)ccc21 | -68

Sample 5 — observed: enzyme activity; mode: inhibitor; concentration: 0.5 µM; baseline: control
Structure (SMILES): CC(C)(C)c1nc2c3cc[nH]c(=O)c3c3cc(F)ccc3c2[nH]1
target | remaining activity
NEK1 (Homo sapiens, UniProt Q96PY6) | 49%
MAPKAPK2 (Homo sapiens, UniProt P49137) | 99.6%
CSNK1G3 (Homo sapiens, UniProt Q9Y6M4) | 105%
MAP3K14 (Homo sapiens, UniProt Q99558) | 71.3%
FGFR3 (Homo sapiens, UniProt P22607) | 93%
MST1R (Homo sapiens, UniProt Q04912) | 103%
RPS6KA2 (Homo sapiens, UniProt Q15349) | 34.6%
JAK3 (Homo sapiens, UniProt P52333) | 0.445%
GRK7 (Homo sapiens, UniProt Q8WTQ7) | 60.5%
GSK3B (Homo sapiens, UniProt P49841) | 95.1%
FRK (Homo sapiens, UniProt P42685) | 104%
NEK6 (Homo sapiens, UniProt Q9HC98) | 82.5%
ARAF (Homo sapiens, UniProt P10398) | 122%
MAPK3 (Homo sapiens, UniProt P27361) | 85.7%
CSNK1G2 (Homo sapiens, UniProt P78368) | 100%
TBK1 (Homo sapiens, UniProt Q9UHD2) | 24%
WEE1 (Homo sapiens, UniProt P30291) | 87.4%
ULK2 (Homo sapiens, UniProt Q8IYT8) | 41.5%
FGFR1 (Homo sapiens, UniProt P11362) | 75.8%
EPHA3 (Homo sapiens, UniProt P29320) | 89.2%
MAP3K5 (Homo sapiens, UniProt Q99683) | 84.4%
MERTK (Homo sapiens, UniProt Q12866) | 79.4%
MAP2K2 (Homo sapiens, UniProt P36507) | 82.1%

For quick reference, copied from above (sample 1):
target | remaining signal [%]
CDK11A (Homo sapiens, UniProt Q9UQ88) | 100
MAP3K15 (Homo sapiens, UniProt Q6ZN16) | 100
RIPK4 (Homo sapiens, UniProt P57078) | 100
TRPM6 (Homo sapiens, UniProt Q9BX84) | 100
